Measurements pooled from the literature.
Each line is one published result; not all experiments were run side by side. ± marks the error that the study gave.

For `Cn1cc(-c2cccc(CN3CCC4(CC3)COc3c4ccc4c3CN([C@H]3CCC(=O)NC3=O)C4=O)c2)cn1`, the tissue concentration was 186 ng/g (mouse Crbn I391V, spleen; oral, 10 mg/kg, 6 h).
With `N=C(N)NCc1ccc(C(=O)NCCCC[C@H](NC(=O)N[C@@H](CCC(=O)O)C(=O)O)C(=O)O)cc1[211At]` the tissue uptake was 17.2 ± 10.7 %ID/g (SCID mouse, PC-3 xenografts, kidneys; 14 h).
For `CCCCCCCC(=O)NCCCC[C@H](NC(=O)[C@H](Cc1ccccc1)NC(=O)[C@@H](CCCNC(=N)N)NC(=O)[C@@H](N)Cc1ccc(O)cc1)C(N)=O`, the tissue concentration was 563 ± 107 ng/g (CD-1 mouse, male, liver; intravenous, 3 mg/kg, 180 min).
For `C[S]1CC[S]2CC[P](CO)(CO)[99Tc+]12.[C-]#[O+].[C-]#[O+].[C-]#[O+]`, the tissue uptake was 13.5 %ID/g (female CF-1 mouse, small intestine; intravenous, 1 h).
For `CN[C@](C)(C[18F])C(=O)O`, the tissue uptake was 8.4 ± 1.2 %ID/g (SCID mouse U87 xenograft, liver; 15 min, post injection).
`N=C(N)NCc1ccc(C(=O)NCCCC[C@H](NC(=O)N[C@@H](CCC(=O)O)C(=O)O)C(=O)O)cc1[131I]` gave a tissue uptake of 170 %ID/g (SCID mouse, PC-3 xenografts, kidneys; 1 h).
`C=Cc1cc(O)cc2nc(-c3ccc(O)c([76Br])c3)oc12` gave a tissue uptake of 0.03 %ID/g (female C57BL/6 mouse, spleen; 6 h, high dose).
The tissue uptake of `N=C(N)NCc1ccc(C(=O)NCCCC[C@H](NC(=O)CCCCCCC(=O)NCCCC[C@H](NC(=O)N[C@@H](CCC(=O)O)C(=O)O)C(=O)O)C(=O)O)cc1[131I]` is reported as 0.24 ± 0.39 %ID/g (SCID mouse, PC-3 xenografts, liver; 21 h).
Under tissue concentration, `COC(=O)C[C@](O)(CCCC(C)(C)OC(C)=O)C(=O)O[C@@H]1C(OC)=C[C@]23CCCN2CCc2cc4c(cc2[C@H]13)OCO4` is recorded as “not detected” (CD1 mouse, kidney; oral, 1 mg/kg, 8 h, below quantification limit 1.00 ng/mL).

Excerpt of the above:
`C=Cc1cc(O)cc2nc(-c3ccc(O)c([76Br])c3)oc12` gave a tissue uptake of 0.03 %ID/g (female C57BL/6 mouse, spleen; 6 h, high dose).
